# Measured values gathered from unrelated publications.
# Compare with care: the assays were run in different laboratories. Values joined by “and” are separate records of one study, mostly repeats; a detail may differ.
# Partner: itself
# B1: TSPAN8 C7A/C74A/C75A/C83A/C232A (Homo sapiens, UniProt P19075); sequence looked up; chain MAGVSAAIKYSMFTFNFLFWLCGILILALAIWVRVSNDSQAIFGSEDVGSSSYVAVDILIAVGAIIMILGFLGAAGAIKESRAMLLLFFIGLLLILLLQVATGILGAVFKSKSDRIVNETLYENTKLLSATGESEKQFQEAIIVFQEEFKCCGLVNGAADWGNNFQHYPELCACLDKQRPCQSYNGKQVYKETCISFIKDFLAKNLIIVIGISFGLAVIEILGLVFSMVLYAQIGNK
# B2: spo0J K252A (Bacillus subtilis, UniProt P26497); chain MAKGLGKGINALFNQVDLSEETVEEIKIADLRPNPYQPRKHFDDEALAELKESVLQHGILQPLIVRKSLKGYDIVAGERRFRAAKLAGLDTVPAIVRELSEALMREIALLENLQREDLSPLEEAQAYDSLLKHLDLTQEQLAKRLGKSRPHIANHLRLLTLPENIQQLIAEGTLSMGHGRTLLGLKNKNKLEPLVQKVIAEQLNVRQLEQLIQQLNQNVPRETKKKEPVKDAVLKERESYLQNYFGTTVNIARQKKKGKIEIEFFSNEDLDRILELLSERES
# B3: GGPS1 R235C (Homo sapiens, UniProt O95749); sequence looked up; chain MEKTQETVQRILLEPYKYLLQLPGKQVRTKLSQAFNHWLKVPEDKLQIIIEVTEMLHNASLLIDDIEDNSKLRRGFPVAHSIYGIPSVINSANYVYFLGLEKVLTLDHPDAVKLFTRQLLELHQGQGLDIYWRDNYTCPTEEEYKAMVLQKTGGLFGLAVGLMQLFSDYKEDLKPLLNTLGLFFQIRDDYANLHSKEYSENKSFCEDLTEGKFSFPTIHAIWSRPESTQVQNILCQRTENIDIKKYCVHYLEDVGSFEYTRNTLKELEAKAYKQIDARGGNPELVALVKHLSKMFKEENE
# B4: CENPE 1-407 (Homo sapiens, UniProt Q02224); sequence looked up; chain MAEEGAVAVCVRVRPLNSREESLGETAQVYWKTDNNVIYQVDGSKSFNFDRVFHGNETTKNVYEEIAAPIIDSAIQGYNGTIFAYGQTASGKTYTMMGSEDHLGVIPRAIHDIFQKIKKFPDREFLLRVSYMEIYNETITDLLCGTQKMKPLIIREDVNRNVYVADLTEEVVYTSEMALKWITKGEKSRHYGETKMNQRSSRSHTIFRMILESREKGEPSNCEGSVKVSHLNLVDLAGSERAAQTGAAGVRLKEGCNINRSLFILGQVIKKLSDGQVGGFINYRDSKLTRILQNSLGGNAKTRIICTITPVSFDETLTALQFASTAKYMKNTPYVNEVSTDEALLKRYRKEIMDLKKQLEEVSLETRAQAMEKDQLAQLLEEKDLLQKVQNEKIENLTRMLVTSSSL
# B5: cfbA 1-143 S11W (Methanocaldococcus jannaschii, UniProt Q58380); chain MEALVLVGHGWRLPYSKELLVKLAEKVKERNLFPIVEIGLMEFSEPTIPQAVKKAIEQGAKRIIVVPVFLAHGIHTTRDIPRLLGLIEDNHEHHHEHSHHHHHHHHHEHEKLEIPEDVEIIYREPIGADDRIVDIIIDRAFGR
# B6: unc-116 (Caenorhabditis elegans, UniProt P34540); sequence looked up; chain MEPRTDGAECGVQVFCRIRPLNKTEEKNADRFLPKFPSEDSISLGGKVYVFDKVFKPNTTQEQVYKGAAYHIVQDVLSGYNGTVFAYGQTSSGKTHTMEGVIGDNGLSGIIPRIVADIFNHIYSMDENLQFHIKVSYYEIYNEKIRDLLDPEKVNLSIHEDKNRVPYVKGATERFVGGPDEVLQAIEDGKSNRMVAVTNMNEHSSRSHSVFLITVKQEHQTTKKQLTGKLYLVDLAGSEKVSKTGAQGTVLEEAKNINKSLTALGIVISALAEGTKSHVPYRDSKLTRILQESLGGNSRTTVIICASPSHFNEAETKSTLLFGARAKTIKNVVQINEELTAEEWKRRYEKEKEKNTRLAALLQAAALELSRWRAGESVSEVEWVNLSDSAQMAVSEVSGGSTPLMERSIAPAPPMLTSTTGPITDEEKKKYEEERVKLYQQLDEKDDEIQKVSQELEKLRQQVLLQEEALGTMRENEELIREENNRFQKEAEDKQQEGKEMMTALEEIAVNLDVRQAECEKLKRELEVVQEDNQSLEDRMNQATSLLNAHLDECGPKIRHFKEGIYNVIREFNIADIASQNDQLPDHDLLNHVRIGVSKLFSEYSAAKESSTAAEHDAEAKLAADVARVESGQDAGRMKQLLVKDQAAKEIKPLTDRVNMELTTLKNLKKEFMRVLVARCQANQDTEGEDSLSGPAQKQRIQFLENNLDKLTKVHKQLVRDNADLRVELPKMEARLRGREDRIKILETALRDSKQRSQAERKKYQQEVERIKEAVRQRNMRRMNAPQIVKPIRPGQVYTSPSAGMSQGAPNGSNA
# B7: ASAP3 7-282 (Homo sapiens, UniProt Q8TDY4-1); sequence looked up; chain VAEFLAVTAEDLSSPAGAAAFAAKMPRYRGAALAREEILEGDQAILQRIKKAVRAIHSSGLGHVENEEQYREAVESLGNSHLSQNSHELSTGFLNLAVFTREVAALFKNLIQNLNNIVSFPLDSLMKGQLRDGRQDSKKQLEKAWKDYEAKMAKLEKERDRARVTGGIPGEVAQDMQRERRIFQLHMCEYLLKAGESQMKQGPDFLQSLIKFFHAQHNFFQDGWKAAQSLFPFIEKLAASVHALHQAQEDELQKLTQLRDSLRGTLQLESREEHLS
# B8: zwf 1-509 (Synechocystis sp. PCC 6803, UniProt P73411); chain MVTLLENPFRTGLRQERTPEPLILTIFGASGDLTQRKLVPAIYQMKRERRLPPELTVVGFARRDWSHDHFREQMRKGIEEFSTGIGSEDLWNEFAQGLFYCSGNMDDPESYLKLKNFLGELDEKRNTRGNRVFYLAVSPNFFPPGIKQLGAAGMLSDPVKSRIVIEKPFGRDLSSAQSLNRVVQSVCKENQVYRIDHYLGKETVQNLMVFRFANAIFEPLWNRQFVDHVQITVAETVGVEERAGYYESAGALRDMVQNHLMQLFCLTAMDPPNAIDADSIRNEKVKVLQATRLADINNLENAGIRGQYKAGWMGGKPVPGYREEPGVDPSSTTPTFAALKLMVDNWRWQGVPFYLRTGKRMPKKVSEIAIQFRQVPLLIFQSVAHQANPNVLSLRIQPNEGISLRFEAKMPGSELRTRTVDMDFSYGSSFGVAAADAYHRLLLDCMLGDQTLFTRADEVEEAWRVVTPVLSAWDAPSDPLSMPLYEAGTWEPAEAEWLINKDGRRWRRL
# B9: ABCG25 1-662 E232Q (Arabidopsis thaliana, UniProt Q84TH5); chain MSAFDGVENQMNGPDSSPRLSQDPREPRSLLSSSCFPITLKFVDVCYRVKIHGMSNDSCNIKKLLGLKQKPSDETRSTEERTILSGVTGMISPGEFMAVLGPSGSGKSTLLNAVAGRLHGSNLTGKILINDGKITKQTLKRTGFVAQDDLLYPHLTVRETLVFVALLRLPRSLTRDVKLRAAESVISELGLTKCENTVVGNTFIRGISGGERKRVSIAHELLINPSLLVLDQPTSGLDATAALRLVQTLAGLAHGKGKTVVTSIHQPSSRVFQMFDTVLLLSEGKCLFVGKGRDAMAYFESVGFSPAFPMNPADFLLDLANGVCQTDGVTEREKPNVRQTLVTAYDTLLAPQVKTCIEVSHFPQDNARFVKTRVNGGGITTCIATWFSQLCILLHRLLKERRHESFDLLRIFQVVAASILCGLMWWHSDYRDVHDRLGLLFFISIFWGVLPSFNAVFTFPQERAIFTRERASGMYTLSSYFMAHVLGSLSMELVLPASFLTFTYWMVYLRPGIVPFLLTLSVLLLYVLASQGLGLALGAAIMDAKKASTIVTVTMLAFVLTGGYYVNKVPSGMVWMKYVSTTFYCYRLLVAIQYGSGEEILRMLGCDSKGKQGASAATSAGCRFVEEEVIGDVGMWTSVGVLFLMFFGYRVLAYLALRRIKH
# B10: Ikbkg 1-355 C54S/K285N (Mus musculus, UniProt O88522); sequence looked up; chain MNKHPWKNQLSEMVQPSGGPAEDQDMLGEESSLGKPAMLHLPSEQGTPETLQRSLEENQELRDAIRQSNQMLRERCEELLHFQVSQREEKEFLMCKFQEARKLVERLSLEKLDLRSQREQALKELEQLKKCQQQMAEDKASVKAQVTSLLGELQESQSRLEAATKDRQALEGRIRAVSEQVRQLESEREVLQQQHSVQVDQLRMQNQSVEAALRMERQAASEEKRKLAQLQAAYHQLFQDYDSHIKSSKGMQLEDLRQQLQQAEEALVAKQELIDKLKEEAEQHNIVMETVPVLKAQADIYKADFQAERHAREKLVEKKEYLQEQLEQLQREFNKLKVGCHESARIEDMRKRHVE
# B11: OSCA1.2 1-771 (Arabidopsis thaliana, UniProt Q5XEZ5); chain MATLQDIGVSAGINILSAFVFFIIFAVLRLQPFNDRVYFSKWYLKGLRSSPARGGAFAQRFVNLDFRSYMKFLNWMPEALKMPEPELIDHAGLDSVVYLRIYWLGLKIFTPIAVLAWAVLVPVNWTNNTLEMAKQLRNVTSSDIDKLSVSNIPEYSMRFWTHIVMAYAFTIWTCYVLMKEYETIANMRLQFVASEARRPDQFTVLVRNVPPDADESVSELVEHFFLVNHPDHYLTHQVVCNANKLADLVKKKKKLQNWLDYYQLKYARNNSQRIMVKLGFLGLWGQKVDAIEHYIAEIDKISKEISKEREEVVNDPKAIMPAAFVSFKTRWAAAVCAQTQQTRNPTQWLTEWAPEPRDVFWSNLAIPYVSLTVRRLIMHVAFFFLTFFFIVPIAFVQSLATIEGIVKAAPFLKFIVDDKFMKSVIQGFLPGIALKLFLAFLPSILMIMSKFEGFTSISSLERRAAFRYYIFNLVNVFLASVIAGAAFEQLNSFLNQSANQIPKTIGVAIPMKATFFITYIMVDGWAGVAGEILMLKPLIMFHLKNAFLVKTDKDREEAMDPGSIGFNTGEPRIQLYFLLGLVYAPVTPMLLPFILVFFALAYIVYRHQIINVYNQEYESAAAFWPDVHGRVIAALVISQLLLMGLLGTKHAALAAPFLIALPVLTIGFHHFCKGRYEPAFIRYPLQEAMMKDTLETAREPNLNLKGYLQNAYVHPVFKGDEDDYDIDDKLGKFEDEAIIVPTKRQSRRNTPAPSIISGDDSPSLPFSGKLV
# B12: rga7 33-307 (Schizosaccharomyces pombe, UniProt O94466); sequence looked up; chain PKVEAILNSELGLAILNDRIKDYLLTCKELAGFFKKRSILEEESGKNLQKLAKSYLETFQSKHHSPQSFSASVITSMEIHEQLANHSLTLQKTLSAFSDQVIEFHKNAERKRKSIKEYAKKQENAYLEAVMQMDKSKSRFKGAETEYNRALDNKNTGDSQKKVGFFKPKSNAQLTKLEDEARLKAENAESDMHSKIENAQNVQKQLLCIHRPNYIKQFFSLQREIESSLIANYLRYTKLCESNTLLNGLTIRPQKPTPTNCGLQHALDNINANTD
# B13: per 229-575 (Drosophila melanogaster, UniProt P07663); sequence looked up; chain GQRGERVKEDSFCCVISMHDGIVLYTTPSITDVLGYPRDMWLGRSFIDFVHLKDRATFASQITTGIPIAESRGSVPKDAKSTFCVMLRRYRGLKSGGFGVIGRPVSYEPFRLGLTFREAPEEARPDNYMVSNGTNMLLVICATPIKSSYKVPDEILSQKSPKFAIRHTATGIISHVDSAAVSALGYLPQDLIGRSIMDFYHHEDLSVMKETYETVMKKGQTAGASFCSKPYRFLIQNGCYVLLETEWTSFVNPWSRKLEFVVGHHRVFQGPKQCNVFEAAPTCKLKISEEAQSRNTRIKEDIVKRLAETVSRPSDTVKQEVSRRCQALASFMETLMDEVSRADLKLE
# B14: At5g06450 2-206 (Arabidopsis thaliana, UniProt Q9FNG3); selenomethionine; chain ASFDGPKFKMTDGSYVQTKTIDVGSSTDISPYLSLIREDSILNGNRAVIFDVYWDVGFPETETKTKTSGWSLSSVKLSTRNLCLFLRLPKPFHDNLKDLYRFFASKFVTFVGVQIEEDLDLLRENHGLVIRNAINVGKLAAEARGTLVLEFLGTRELAHRVLWSDLGQLDSIEAKWEKAGPEEQLEAAAIEGWLIVNVWDQLSDE
# B15: trfB (Escherichia coli, UniProt P03052); sequence looked up; chain MKKRLTESQFQEAIQGLEVGQQTIEIARGVLVDGKPQATFATSLGLTRGAVSQAVHRVWAAFEDKNLPEGYARVTAVLPEHQAYIVRKWEADAKKKQETKR
Sequence,test,test system,conditions,subunits per oligomer
B1,fluorescence intensity fluctuation spectrometry,HEK293T,in cells,2
B2 (spo0J K252A),SEC-MALS,,,2
B3 (GGPS1 R235C),native MS,,,4
"MKGMSKMPQFLLRWPREVLDLVRKVAEENGRSVNSEIYQRVMESFKKEGRIGA (Arc repressor 1-53 N11L (P22 phage, UniProt P03050))",SEC,,,2
B4 (CENPE 1-407),"AUC, SEC",,,2
B5 (cfbA 1-143 S11W),SEC,,,2
B6 (unc-116),mass photometry,,,2
B7 (ASAP3 7-282),SEC-MALS,,,2
B8 (zwf 1-509),SEC-MALS,,,4
B9 (ABCG25 1-662 E232Q),cryo-EM,,,2
B10 (Ikbkg 1-355 C54S/K285N),SEC-MALS,,,2
B11 (OSCA1.2 1-771),cryo-EM structure,,,2
B12 (rga7 33-307),cross-linking,,,2 and 3 and 4
B13 (per 229-575),SEC,,,2
B14 (At5g06450 2-206),X-ray crystallography,,,6
B15 (trfB),SEC,,,2

# A few entries again:
Sequence,test,test system,conditions,subunits per oligomer
B13 (per 229-575),SEC,,,2
B14 (At5g06450 2-206),X-ray crystallography,,,6
